{"data": "Assay results gathered from unrelated publications"}
{"Compound": "CCN1[C@@H](C(=O)NC23CCC(C(=O)O)(CC2)CC3)[C@H](c2cccc(Cl)c2F)[C@]2(C(=O)Nc3cc(Cl)ccc32)C12CCCCC2", "system": "patients with advanced solid tumours", "setting": "oral, 200 mg", "quantity": "anorexia incidence", "value": "50%"}
{"Compound": "Nc1nc2cc(-c3ccc4ncc(C(=O)N5CCOCC5)n4c3)ccc2o1", "system": "advanced solid tumour patients", "setting": "dose not given", "scale": "relative to: patients", "quantity": "grade ≥3 hyperglycaemia", "value": "7%"}
{"Compound": "CN(C)c1cccc2c(S(=O)(=O)N3CCN(c4ccccc4)CC3)cccc12", "system": "toluene", "setting": "20 °C", "quantity": "excitation maximum", "value": "321 nm"}
{"Compound": "Cc1cccc(Cn2nc(C3CC3)c3c(NC(=O)c4cnc5cc(OCCN6CCN(C)CC6)ccn45)cccc32)n1", "test": "CTCAE v4.03, measured: decreased appetite", "system": "pancreatic ductal adenocarcinoma patients", "setting": "oral, dose not given, together with: pembrolizumab IV every 3 weeks", "quantity": "all-cause adverse events", "value": "33.3%"}
{"Compound": "O[C@H]1CCCN[C@@H]1CCCn1cnc2c(Cl)c(Cl)ccc21", "system": "healthy CYP2D6 intermediate metabolizers, plasma", "setting": "oral, dose not given, together with: pirfenidone", "quantity": "Cmax geometric LS mean", "value": "385 ng/mL"}
{"Compound": "CO[C@H]1C[C@@H]2CC[C@@H](C)[C@@](O)(O2)C(=O)C(=O)N2CCCC[C@H]2C(=O)O[C@H]([C@H](C)C[C@@H]2CC[C@@H](OC(=O)NCCOCCOCCOCCOCCOCCOCCOCCOCCC(=O)N3CCc4cc(Cn5nc(-c6ccc7oc(N)nc7c6)c6c(N)ncnc65)ccc4C3)[C@H](OC)C2)C[C@@H](O)[C@H](C)/C=C(\\C)[C@@H](O)[C@@H](OC)C(=O)[C@H](C)C[C@H](C)/C=C/C=C/C=C/1C", "system": "patients with advanced solid tumours", "setting": "intravenous, 6 mg weekly, any grade", "quantity": "fatigue incidence", "value": "58%"}
{"Compound": "CC(C)(O)c1cc(Nc2cc(Oc3cn(C4CC4)nc3C3CCOCC3)ccn2)ccn1", "test": "Nausea", "system": "advanced cancer patients, dose escalation", "setting": "oral, dose not given, 3 weeks on/1 off, all causality grade ≥3", "quantity": "treatment-emergent adverse events", "value": "3%"}
{"Compound": "Cc1c(COC(=O)[C@@H]2[C@H](/C=C(\\Cl)C(F)(F)F)C2(C)C)cccc1-c1ccccc1 (racemic)", "test": "measured: CYP3A5", "system": "human, age 5 years, recombinant human CYP3A5", "setting": "0.1 µM", "quantity": "enzyme contribution to clearance", "value": "1.78%"}
{"Compound": "Cc1ncnc2c1ccn2[C@@H]1C[C@H](Oc2cc(C(F)F)c(F)c3c2CNCC3)[C@@H](O)[C@H]1O", "system": "patients", "setting": "dose not given, any grade", "scale": "relative to: patients", "quantity": "Vomiting incidence", "value": "6%"}
{"Compound": "COc1cc2c(Oc3ccc4[nH]c(C)cc4c3F)ccnc2cc1OCC1(N)CC1", "system": "paediatric recurrent refractory sarcoma", "setting": "concentration not given, whole group", "quantity": "grade 1 or 2 TBIL elevation", "value": "0%"}
{"Compound": "CC(C)[C@H](O)C(=O)N[C@H]1Cc2ccc3c(c2)[C@]2(C4=C(c5nc(CO)co5)N=C(O4)[C@H](C(C)(C)C)NC1=O)c1cc(F)ccc1N[C@@H]2O3", "system": "NSG mice, brain", "setting": "intravenous, 10 mg/kg, single dose at MTD, together with: paclitaxel 40 mg/kg", "quantity": "Cmax", "value": "47 ng/mL"}
{"Compound": "C[C@@H]1OC(=O)NN=C1c1ccc(-c2ccc(F)cc2)c(C(F)(F)F)c1", "test": "phase I trial, measured: back pain worst grade 1", "system": "human patients", "setting": "20 mg loading then 1 mg daily", "quantity": "patients with adverse event", "value": "0%"}
{"Compound": "[O-][S+]1CCc2nc(N3CCC(c4ncc(Cl)cn4)CC3)nc(NC3(CO)CCC3)c21 (centres unmarked)", "test": "measured: Dizziness", "system": "healthy male humans", "setting": "multiple doses, all groups", "quantity": "adverse event incidence", "value": "0%"}
{"Compound": "COc1ncccc1-c1cnn2ccc(N3CCN(C(=O)OC(C)C)CC3)nc12", "system": "mouse nerve ligation model, plasma", "setting": "oral, 10 mg/kg, 120 min after last dose, repeat dosing day 3", "quantity": "drug concentration", "value": "1700 nM"}
{"note": "Repeated from above:"}
{"Compound": "Cc1c(COC(=O)[C@@H]2[C@H](/C=C(\\Cl)C(F)(F)F)C2(C)C)cccc1-c1ccccc1 (racemic)", "test": "measured: CYP3A5", "system": "human, age 5 years, recombinant human CYP3A5", "setting": "0.1 µM", "quantity": "enzyme contribution to clearance", "value": "1.78%"}
{"Compound": "O[C@H]1CCCN[C@@H]1CCCn1cnc2c(Cl)c(Cl)ccc21", "system": "healthy CYP2D6 intermediate metabolizers, plasma", "setting": "oral, dose not given, together with: pirfenidone", "quantity": "Cmax geometric LS mean", "value": "385 ng/mL"}
